Published values of several laboratories.
Protocols differ between the studies behind these lines. Several values in a cell are separate wells, animals, samples, runs or records. ± gives the spread as reported.
Cell line: MDA-MB-231

With `CCCNC(=O)[C@H]1O[C@@H]1C(=O)N[C@H](C(=O)N1CCC[C@H]1C(=O)OCC1=C2C(C)=CC(C)=[N+]2[B-](CC)(CC)n2c(C)cc(C)c21)[C@@H](C)CC` the EC50 was > 50 µM (cell growth or viability, MTT; dark).
`C[C@@H]1CC[C@@H]([C@](O)(COCc2ccccc2)Cn2cnc3ccccc32)[C@H](OCc2ccccc2)C1` has an inhibition of 84.7% (cell growth or viability, MTT; 10 µM, 72 h).
For `CCCNC(=O)[C@H]1O[C@@H]1C(=O)N[C@H](C(=O)N1CCC[C@H]1C(=O)OCC1=C2C(C)=CC(C)=[N+]2[B-](F)(F)n2c(C)cc(C)c21)[C@@H](C)CC`, the EC50 was > 50 µM (cell viability, MTT; concentration not given, 72 h, irradiated 15 min up to 470 nm).
With `CC(C)c1ccc(N(C)c2ccc3c(c2)OCC[C@H]3CNc2cnccc2C(=O)O)cc1` the S-phase cells was 40% (flow cytometry, propidium iodide; 0.1 µM, 24 h).
`CC(=O)OCC1=C2C(C)=CC(C)=[N+]2[B-](C)(C)n2c(C)cc(C)c21`: cytotoxicity “not toxic” (MTT; 50 µM, 4 h, light and dark).
With `COc1ccccc1CNC[C@](O)(COCc1ccccc1)[C@@H]1CC[C@@H](C)C[C@H]1OCc1ccccc1` the inhibition was 95.7% (cell growth or viability, MTT; 10 µM, 72 h).
With `CC(=O)OC[C@H]1O[C@@H](n2cc(CSc3nc4ccccc4n3Cc3cn([C@@H]4O[C@H](COC(C)=O)[C@@H](OC(C)=O)C(OC(C)=O)[C@H]4OC(C)=O)nn3)nn2)[C@H](OC(C)=O)C(OC(C)=O)[C@@H]1OC(C)=O` (stereo in doubt) the cytotoxicity was 90.6% (MTT; 62.5 ppm).
For `C[C@@H]1CC[C@@H]([C@](O)(CNCc2cccc(F)c2)COCc2ccccc2)[C@H](OCc2ccccc2)C1`, the inhibition was 96.1% (cell growth or viability, MTT; 30 µM, 72 h).
The EC50 of `CCCNC(=O)[C@H]1O[C@@H]1C(=O)N[C@H](C(=O)N1CCC[C@H]1C(=O)OCC1=C2C(C)=CC(C)=[N+]2[B-](C)(C)n2c(C)cc(C)c21)[C@@H](C)CC` is reported as > 100 µM (cell viability, MTT; 4 h, dark).
With `COc1ccc(CNC[C@@](O)(COCc2ccccc2)[C@@H]2CC[C@@H](C)C[C@H]2OCc2ccccc2)cc1` the inhibition was 96.5% (cell growth or viability, MTT; 10 µM, 72 h).
Under “caspase-8 active cells”, `CC(=O)[O][Pd][c]1ccccc1-n1nc(C)cc1C.CC(=O)[O][Pd][c]1ccccc1-n1nc(C)cc1C` is recorded as 31.1 ± 2.05% (FLICA flow cytometry; 25 µM, 24 h).
For `Oc1cccc(-c2cccc(O)n2)n1.[Cl-].[Cl-].[Ru+2].c1ccc(-c2ccnc3c2ccc2c(-c4ccccc4)ccnc23)cc1.c1ccc(-c2ccnc3c2ccc2c(-c4ccccc4)ccnc23)cc1`, the EC50 was 10 µM (cell growth or viability; dark).
`COc1ccc(CNC[C@@](O)(COCc2ccc(F)cc2)[C@@H]2CC[C@@H](C)C[C@H]2OCc2ccc(F)cc2)cc1` gave an inhibition of 99% (cell growth or viability, MTT; 30 µM, 72 h).
With `COc1ccccc1-c1ccncc1C(=O)Nc1nnc(OCc2ccc(Cl)cc2)s1` the colony count was 35 and 24.5 (0.1875 µM).
`CCc1c(C)c2ccc(OC(C)C)c(C)c2oc1=O` has a viability of 2.95% (cell growth or viability, MTT; 1000 µg/mL).

Some of these lines once more:
`C[C@@H]1CC[C@@H]([C@](O)(COCc2ccccc2)Cn2cnc3ccccc32)[C@H](OCc2ccccc2)C1` has an inhibition of 84.7% (cell growth or viability, MTT; 10 µM, 72 h).
For `CCCNC(=O)[C@H]1O[C@@H]1C(=O)N[C@H](C(=O)N1CCC[C@H]1C(=O)OCC1=C2C(C)=CC(C)=[N+]2[B-](F)(F)n2c(C)cc(C)c21)[C@@H](C)CC`, the EC50 was > 50 µM (cell viability, MTT; concentration not given, 72 h, irradiated 15 min up to 470 nm).
